{"data": "Literature values, collected from citations in different studies", "note": "Protocols differ between the studies behind these lines."}
{"Structure (SMILES)": "O=C1c2ccccc2-c2c1c1ccc([N+](=O)[O-])cc1c(=O)n2CCCn1ccnc1", "target or system": "prostate DU-145", "test": "cell growth", "endpoint": "GI50", "result": "17 nM"}
{"Structure (SMILES)": "Cc1ccc(OCC(=O)N(Cc2cccs2)c2ccn[nH]2)cc1", "target or system": "Salmonella typhimurium", "test": "abbreviated Ames test", "test system": "TA98 and TA100", "setting": "up to 5000 µg/plate, with and without S9", "endpoint": "Ames test result", "result": "negative"}
{"Structure (SMILES)": "O=C1c2cccc3c2[C@H](CCC3)CN1[C@@H]1CN2CCC1CC2", "test system": "patients, plasma", "setting": "oral, dose not given, netupitant-palonosetron combination, with: cyclophosphamide 500 to 1000 mg/m^2 IV", "endpoint": "Vz/F", "result": "668 L"}
{"Structure (SMILES)": "O=C1c2ccccc2-c2c1c1ccc([N+](=O)[O-])cc1c(=O)n2CCCN1CCOCC1", "target or system": "lung HOP-62", "test": "cell growth", "endpoint": "GI50", "result": "21 nM"}
{"Structure (SMILES)": "CC(=O)Nc1cccc(-n2c(=O)n(C3CC3)c(=O)c3c(Nc4ccc(I)cc4F)n(C)c(=O)c(C)c32)c1", "target or system": "hiPSC-derived cardiomyocytes", "setting": "72 h, tested 0 to 100 µM", "endpoint": "beating cessation concentration", "result": "100 µM"}
{"Structure (SMILES)": "CC[C@H](C)CCCCC(=O)N[C@@H](CCN)C(=O)N[C@H](C(=O)N[C@@H](CCN)C(=O)N[C@H]1CCNC(=O)[C@H]([C@@H](C)O)NC(=O)[C@H](CCN)NC(=O)[C@H](CCN)NC(=O)[C@H](CC(C)C)NC(=O)[C@@H](Cc2ccccc2)NC(=O)[C@H](CCN)NC1=O)[C@@H](C)O", "test system": "human patients with renal insufficiency", "setting": "intravenous, dose not given, population PK model", "endpoint": "central volume of distribution", "result": "6.98 L"}
{"Structure (SMILES)": "COc1cc(Nc2c(C#N)cnc3cc(OCCCN4CCN(C)CC4)c(OC)cc23)c(Cl)cc1Cl", "target or system": "hiPSC-derived cardiomyocytes", "test": "contractility", "setting": "72 h", "endpoint": "lowest effective concentration", "result": "4.73 µM"}
{"Structure (SMILES)": "CC(C)(c1ccc(O)cc1)c1ccc(O)cc1", "target or system": "Pimephales promelas", "test": "reproduction", "endpoint": "LOEC", "result": "≥ 640 µg/L"}
{"Structure (SMILES)": "COc1cc2nccc(Oc3ccc(NC(=O)C4(C(=O)Nc5ccc(F)cc5)CC4)cc3)c2cc1OC", "target or system": "hiPSC-derived cardiomyocytes", "test": "contractility", "setting": "concentration not given, 72 h, at effective concentration", "scale": "baseline: baseline", "endpoint": "log2 fold change", "result": 1.37}
{"Structure (SMILES)": "Cc1ccccc1-c1cc(N2CCN(C)CC2)ncc1N(C)C(=O)C(C)(C)c1cc(C(F)(F)F)cc(C(F)(F)F)c1", "test system": "patients, plasma", "setting": "oral, dose not given, netupitant-palonosetron combination, with: etoposide 35 to 100 mg/m^2 IV", "endpoint": "Vz/F", "result": "1860 L"}
{"Structure (SMILES)": "O=C1c2ccccc2-c2c1c1ccc([N+](=O)[O-])cc1c(=O)n2C[C@H](O)CO", "target or system": "CNS SF-539", "test": "cell growth", "endpoint": "GI50", "result": "157 nM"}
{"Structure (SMILES)": "COc1cc2c(Nc3ccc(Br)cc3F)ncnc2cc1OCC1CCN(C)CC1", "target or system": "hiPSC-derived cardiomyocytes", "test": "contractility", "setting": "72 h", "endpoint": "lowest effective concentration", "result": "5.68 µM"}
{"note": "Repeated from above:"}
{"Structure (SMILES)": "O=C1c2ccccc2-c2c1c1ccc([N+](=O)[O-])cc1c(=O)n2CCCN1CCOCC1", "target or system": "lung HOP-62", "test": "cell growth", "endpoint": "GI50", "result": "21 nM"}
